Results pooled from the literature.
Compare with care: the assays were run in different laboratories. Several values in a cell are separate wells, animals, samples, runs or records. ± gives the spread as reported.

`CCN1CCN(Cc2ccc(NC(=O)c3ccc(C)c(NC(=O)c4cncc(-c5cccs5)c4)c3)cc2C(F)(F)F)CC1`: plasma concentration “not detected” (LC-MS/MS; C57BL/6 mice, plasma; intraperitoneal, 15 mg/kg, 24 h).
With `COc1nc(-c2cc(C)c(N[C@@H](C)c3cc(F)cc(F)c3)nn2)ccc1-n1cnc(C)c1` the plasma concentration was 5120 ng/mL (C57BL/6J mice, male, plasma; oral, 10 mg/kg daily for 9 days, 4 h after last dose).
The plasma concentration of `Cc1cc([C@@H](C)Nc2ccccc2C(=O)O)c2nc(N3CCC(F)(F)CC3)c(C#N)c(=O)n2c1` is reported as 76 ng/mL (NOD SCID mice, HCC1954 xenograft; oral, 100 mg/kg once daily, 1 h).
For `CC1(C)NC(=O)N(c2ccc(F)c(C(C)(F)F)c2)C1=O`, the plasma concentration was 22100 ± 1210 ng/mL (male Swiss outbred mice, plasma; oral, 100 mg/kg, 48 h).
For `COc1nc(-c2cc(C)c(N[C@@H](C)c3c(F)cc(F)cc3F)nn2)ccc1-n1cnc(C)c1`, the plasma concentration was 15800 ng/mL (C57BL/6J mice, male, plasma; oral, 50 mg/kg daily for 9 days, 4 h after last dose).
For `NCc1cc2c(cc1F)C(=O)N(C1CCC(=O)NC1=O)C2` (stereo not shown), plasma concentration read “not detected” (CD-1 mice; oral, 10 mg/kg, 8 h).
For `CN1C(=O)c2ccccc2[S@+]([O-])c2ccc(C(=O)NCCc3cccs3)cc21`, plasma concentration read “not detected” (male C57BL/6 mice, plasma; ip, 30 mg/kg, 24 h, below quantification limit 1 ng/mL).
With `CN(C)CC#Cc1ccc2[nH]c3c(c2c1)-c1nc(N)ncc1CCC3` the plasma concentration was 809 ng/mL and 659 ng/mL (CD-1 mice, male, plasma; intraperitoneal, 30 mg/kg, 1 h).
`O=Cc1cc2c(cc1F)C(=O)N(C1CCC(=O)NC1=O)C2` (stereo not shown) — result for plasma concentration: “not detected” (CD-1 mice; intravenous, 1 mg/kg, 0.5 h).
The plasma concentration of `O=S(=O)(c1ccc(-c2ccc3nccc(Nc4ccncn4)c3c2)cc1)N1CCOCC1` is reported as 2270 ng/mL and 2750 ng/mL (female BALB/c mice, plasma; intraperitoneal, 10 mg/kg, 0.08 h).
For `COc1cc2c(Nc3ccc(Cl)c(Cl)c3F)ncnc2cc1OC[C@@H]1C[C@@H]2CN(C)C[C@@H]2C1`, the plasma concentration was 1730 ng/g (FVB wild-type mice, both sexes, plasma; intraperitoneal infusion (osmotic pump), 10 mg/mL at 1 µL/h, 48 h).
`O=[N+]([O-])c1ccc(-c2ccc(O)cc2)c2cccnc12` gave a plasma concentration of 113 ng/mL (male ICR mice, plasma; intravenous, 1 mg/kg, 0.25 h).
`Cc1cc2sc(N)nc2c2cccnc12` has a plasma concentration of 1030 ± 130 ng/mL (LC-MS; BALB/c mice, female; intraperitoneal, 30 mg/kg, 4 h).
`COc1cc(F)c([C@@H]2CNC(=O)[C@H]2NC(=O)Nc2ccccc2)c(F)c1` gave a plasma concentration of 8 ± 2 nM (C57BL/6 mice, LPS challenge, plasma; oral, 0.3 mg/kg, 1.5 h post dose).
With `CC[C@H](C)[C@H](NC(=O)[C@H](CCC(=O)O)NC(=O)[C@H](CO)NC(=O)[C@@H](NC(=O)[C@@H](N)CO)C(C)C)C(=O)N[C@@H](CCC(N)=O)C(=O)N[C@@H](CC(C)C)C(=O)N[C@@H](CCSC)C(=O)N[C@@H](Cc1cnc[nH]1)C(=O)N[C@@H](CC(N)=O)C(=O)N[C@@H](CC(C)C)C(=O)NCC(=O)N[C@@H](CCCCN)C(=O)N[C@@H](Cc1cnc[nH]1)C(=O)N[C@@H](CC(C)C)C(=O)N[C@@H](CC(N)=O)C(=O)N[C@@H](CO)C(=O)N[C@@H](CCSC)C(=O)N[C@@H](CCC(=O)O)C(=O)N[C@@H](CCCNC(=N)N)C(=O)N[C@H](C(=O)N[C@@H](CCC(=O)O)C(=O)N[C@@H](Cc1c[nH]c2ccccc12)C(=O)N[C@@H](CC(C)C)C(=O)N[C@@H](CCCNC(=N)N)C(=O)N[C@@H](CCCCN)C(=O)N[C@@H](CCCCN)C(=O)N[C@@H](CC(C)C)C(=O)N[C@@H](CCC(N)=O)C(=O)N[C@@H](CC(=O)O)C(=O)N[C@H](C(=O)N[C@@H](Cc1cnc[nH]1)C(=O)N[C@@H](CC(N)=O)C(=O)N[C@@H](Cc1ccccc1)C(N)=O)C(C)C)C(C)C` the plasma concentration was 0.025 nM (ELISA; female CD-1 mice, blood plasma; subcutaneous, 10 nmol/kg, 4 h).
`O=C1CCC(N2Cc3cc(CO)c(F)cc3C2=O)C(=O)N1` (stereo not shown) — result for plasma concentration: “not detected” (CD-1 mice; intravenous, 1 mg/kg, 8 h).

Some of these lines once more:
`O=[N+]([O-])c1ccc(-c2ccc(O)cc2)c2cccnc12` gave a plasma concentration of 113 ng/mL (male ICR mice, plasma; intravenous, 1 mg/kg, 0.25 h).
